Assay results from different studies.
“And” joins repeats or separate records; there may be more than shown. Numbers after ± are the reported error.
rep main protease: Replicase polyprotein 1ab, main protease (rep, Severe acute respiratory syndrome coronavirus 2, UniProt P0DTD1)
Spike glycoprotein: Spike glycoprotein (Severe acute respiratory syndrome coronavirus 2, UniProt P0DTC2)

Nc1ncnc2c1ncn2CCOC(=O)c1ccc(S(=O)(=O)F)cc1 — kinact (cya (Bacillus anthracis, UniProt P40136)): 0.000183 s⁻¹
O=c1cc(O)c2ccccc2o1 — inhibition (rep main protease; reporter gene (Gaussia luciferase), inhibitor; 20 µM): 2.13%
O=C1NCc2ccc(C(=O)N3CCC[C@@H]([C@H]4CCN(C(=O)c5cn[nH]c(=O)c5)C4)C3)cc2N1 — inhibition (rep main protease; enzyme activity, inhibitor; 5 µM, run 1): 8.2%
C=C(C)[C@@H]1CC[C@]2(C(=O)Nc3ccc4ccccc4c3)CC[C@]3(C)[C@H](CC[C@@H]4[C@@]5(C)CC[C@H](O[C@@H]6O[C@H](CO)[C@@H](O[C@@H]7O[C@@H](C)[C@H](O)[C@@H](O)[C@H]7O)[C@H](O)[C@H]6O[C@@H]6O[C@@H](C)[C@H](O)[C@@H](O)[C@H]6O)C(C)(C)[C@@H]5CC[C@]43C)[C@@H]12 — six-helix bundle formation inhibition (Spike glycoprotein, HR1/HR2 six-helix bundle (Severe acute respiratory syndrome coronavirus 2, UniProt P0DTC2); circular dichroism; 20 µM): inactive
COc1c(/C=C/C(=O)c2ccc(O)cc2)ccc(O)c1O — koff (Spike glycoprotein; binding, biolayer interferometry): 0.0134 s⁻¹
CC(C)C[C@H](NC(=O)CNC(=O)c1cc(Cl)ccc1Cl)B(O)O — inhibition (rep main protease; reporter gene (mKate2), inhibitor; 20 µM): -1.26%
O=C(O)c1cc(OCCNC(=O)c2cc(OCc3cn([C@@H]4O[C@H](CO)[C@H](O[C@H]5O[C@H](CO)[C@H](O)[C@H](O)[C@H]5O)[C@H](O)[C@H]4O)nn3)cc(OCc3cn([C@@H]4O[C@H](CO)[C@H](O[C@H]5O[C@H](CO)[C@H](O)[C@H](O)[C@H]5O)[C@H](O)[C@H]4O)nn3)c2)cc(OCCNC(=O)c2cc(OCc3cn([C@@H]4O[C@H](CO)[C@H](O[C@H]5O[C@H](CO)[C@H](O)[C@H](O)[C@H]5O)[C@H](O)[C@H]4O)nn3)cc(OCc3cn([C@@H]4O[C@H](CO)[C@H](O[C@H]5O[C@H](CO)[C@H](O)[C@H](O)[C@H]5O)[C@H](O)[C@H]4O)nn3)c2)c1 — Hill slope (Shiga toxin subunit B (stxB, Shigella dysenteriae, UniProt Q7BQ98); Escherichia coli): -1.13
Cc1nc(C(=O)N2CC[C@H](N[C@@H]3N=C(c4ccccc4)Nc4ccccc43)C2)cc(=O)[nH]1 — inhibition (rep main protease; enzyme activity, inhibitor; 5 µM, run 2): 15.8%
C[C@H](CCC(=O)NCCS(=O)(=O)[O-])[C@H]1CC[C@H]2[C@@H]3[C@@H](O)C[C@@H]4C[C@H](O)CC[C@]4(C)[C@H]3CC[C@]12C.[Na+] — inhibition (rep main protease; reporter gene (mKate2), inhibitor; 20 µM): -0.556%
Cc1nc(C)c(CCC(=O)N2C[C@]34CCC[C@@]3(C2)CN(C(=O)[C@@H]2CCC(=O)NC2)C4)c(=O)[nH]1 — inhibition (rep main protease; enzyme activity, inhibitor; 5 µM, mean of runs): 13.3%
CC(C)=CCC[C@](C)(O[C@@H]1O[C@H](CO[C@@H]2O[C@H](CO)[C@@H](O)[C@H](O)[C@H]2O)[C@@H](O)[C@H](O)[C@H]1O)[C@H]1CC[C@]2(C)[C@@H]1[C@H](O)C[C@@H]1[C@@]3(C)CC[C@H](O[C@@H]4O[C@H](CO)[C@@H](O)[C@H](O)[C@H]4O)C(C)(C)[C@@H]3CC[C@]12C — kon (Spike glycoprotein; binding, BLI): 1770 M⁻¹ s⁻¹
Cc1ccc2cc(C(=O)N3CCCC4(CCN(c5cc6nncn6c(C)n5)CC4)C3)ccc2c1 — inhibition (rep main protease; enzyme activity, inhibitor; 5 µM, mean of runs): 11.9%
CC[C@H](C)[C@H](NC(=O)[C@@H]1CCCN1C(=O)[C@H](C)NC(=O)[C@@H]1CSSC[C@@H]2NC(=O)[C@H](CC(=O)O)NC(=O)[C@H](CCCNC(=N)N)NC(=O)[C@H](CCC(=O)O)NC(=O)[C@H](CCCNC(=N)N)NC(=O)CNC(=O)[C@H](CC(=O)O)NC(=O)[C@@H]3CSSC[C@H](NC(=O)[C@H](CCC(=O)O)NC(=O)[C@H](CC(C)C)NC(=O)CNC(=O)[C@H](C)NC(=O)[C@H](CSSC[C@H](NC(=O)[C@H](Cc4ccccc4)NC(=O)[C@@H](N)CO)C(=O)N[C@@H](CC(C)C)C(=O)N[C@@H](C(C)C)C(=O)N[C@@H](CCCCN)C(=O)N[C@@H](Cc4c[nH]c5ccccc45)C(=O)N[C@@H](CCCCN)C(=O)N[C@@H](CCC(N)=O)C(=O)N3)NC2=O)C(=O)N[C@@H](Cc2c[nH]c3ccccc23)C(=O)N[C@@H](CCCCN)C(=O)N[C@@H](CCCNC(=N)N)C(=O)N[C@@H](CO)C(=O)NCC(=O)N[C@@H](CO)C(=O)N[C@@H](CCCCN)C(=O)N[C@@H](CO)C(=O)N[C@@H](CO)C(=O)N[C@@H](C(C)C)C(=O)N1)C(=O)N[C@H](C(=O)O)[C@@H](C)O — koff (ASIC1 (Homo sapiens, UniProt P78348); binding, SPR; pH 7.5): 0.182 s⁻¹
O=S(=O)(NC1CCC(c2cc(F)ccc2F)(S(=O)(=O)c2ccc(Cl)cc2)CC1)C(F)(F)F (stereo not shown) — inhibition (rep main protease; reporter gene (Gaussia luciferase), inhibitor; HEK293T; 20 µM): -1.05%
CCc1c(C(=O)C(N)=O)c2c(OCC(=O)O)cccc2n1Cc1ccccc1 — remaining activity (Daboia russelii venom phospholipase A2; enzyme activity, inhibitor; GA population; 0.001 µM, together with: NOB substrate; relative to: venom alone): 94.2% and 93.8% and 99.5%
CC1=CC(=O)[C@@H](O)[C@]2(C)[C@H]3[C@@H](O)[C@H](O)[C@@]4(C)OC[C@@]35[C@@H](C[C@@H]12)OC(=O)[C@H](O)[C@]54O — inhibition (rep main protease; reporter gene (mKate2), inhibitor; 20 µM): -1.02%
CCOP(=O)(OCC)Oc1ccc([N+](=O)[O-])cc1 — increase in amplitude (Ache (Mus musculus, UniProt P21836); end-plate current after AChE inhibition; mouse diaphragm; 4 µM, 4 min): 16%
CO[C@H]1/C=C/O[C@@]2(C)Oc3c(C)c(O)c4c(O)c(c(/C=N/N5CCN(C)CC5)c(O)c4c3C2=O)NC(=O)/C(C)=C\C=C\[C@H](C)[C@H](O)[C@@H](C)[C@@H](O)[C@@H](C)[C@H](OC(C)=O)[C@@H]1C — koff (Spike glycoprotein; binding, BLI): 0.411 s⁻¹
O=C(CCn1cc[nH]c(=O)c1=O)N[C@@H]1CCCC12CN(C(=O)c1cccc3c1C(=O)NC3)C2 — inhibition (rep main protease; enzyme activity, inhibitor; 5 µM, mean of runs): 13.4%
CCOC1=C(O)C(=O)O[C@@H]1[C@@H](O)CO — inhibition (rep main protease; reporter gene (mKate2), inhibitor; 20 µM): -0.682%
Cc1nn(CC(=O)N2C[C@H]3C[C@@H]2CC[C@H]3NC(=O)C=C2C3CC4CC(C3)CC2C4)c(=O)n1C — inhibition (rep main protease; enzyme activity, inhibitor; 5 µM, run 1): 10.8%
C=C[C@@](C)(/C=C/c1ccc(O)cc1)CCC=C(C)C — koff (Spike glycoprotein; binding): 0.0484 s⁻¹
CCOC(=O)CCN(C(=O)c1ccc2c(c1)nc(CNc1ccc(C(=N)N)cc1)n2C)c1ccccn1.Cl — inhibition (rep main protease; reporter gene (mKate2), inhibitor; 20 µM): -0.136%
O=C(/C=C/c1ccc(O)c(O)c1/C=C/c1ccc(O)c(O)c1)O[C@H](Cc1ccc(O)c(O)c1)C(=O)O — koff (Spike glycoprotein; binding, BLI): 0.0028 s⁻¹
O=C(/C=C\c1cnc[nH]c1=O)NC[C@H](NC(=O)C1=NNC(=O)CC1)c1ccc2ccccc2c1 — inhibition (rep main protease; enzyme activity, inhibitor; 5 µM): 16%
O=c1c(O)c(-c2ccc(O)cc2O)oc2cc(O)cc(O)c12 — Hill slope (Replicase polyprotein 1ab, nsp14 N7-methyltransferase (rep, Severe acute respiratory syndrome coronavirus 2, UniProt P0DTD1); N7-methyltransferase activity, inhibitor, Py-FLINT): 1.61 ± 0.12
O=C(N[C@@H]1CC[C@H]2C[C@@H]1CN2C(=O)c1ccc(-c2ccccc2)[nH]1)c1cc(O)cc(=O)[nH]1 — inhibition (rep main protease; enzyme activity, inhibitor; 5 µM, run 2): 42.2%
O=C(O)C1(c2ccc(-c3ccc(Cl)c(Cl)c3)c(F)c2)CC1 — inhibition (rep main protease; reporter gene (Gaussia luciferase), inhibitor; 20 µM): -0.137%

Excerpt of the above:
COc1c(/C=C/C(=O)c2ccc(O)cc2)ccc(O)c1O — koff (Spike glycoprotein; binding, biolayer interferometry): 0.0134 s⁻¹
O=C(O)c1cc(OCCNC(=O)c2cc(OCc3cn([C@@H]4O[C@H](CO)[C@H](O[C@H]5O[C@H](CO)[C@H](O)[C@H](O)[C@H]5O)[C@H](O)[C@H]4O)nn3)cc(OCc3cn([C@@H]4O[C@H](CO)[C@H](O[C@H]5O[C@H](CO)[C@H](O)[C@H](O)[C@H]5O)[C@H](O)[C@H]4O)nn3)c2)cc(OCCNC(=O)c2cc(OCc3cn([C@@H]4O[C@H](CO)[C@H](O[C@H]5O[C@H](CO)[C@H](O)[C@H](O)[C@H]5O)[C@H](O)[C@H]4O)nn3)cc(OCc3cn([C@@H]4O[C@H](CO)[C@H](O[C@H]5O[C@H](CO)[C@H](O)[C@H](O)[C@H]5O)[C@H](O)[C@H]4O)nn3)c2)c1 — Hill slope (Shiga toxin subunit B (stxB, Shigella dysenteriae, UniProt Q7BQ98); Escherichia coli): -1.13
